Experimental data from different studies.
± marks the error that the study gave.
Gria2/Glutamate receptor 3: Gria2/Glutamate receptor 3 (Rattus norvegicus, UniProt P19491+P19492)
UniProt P19492, sequence (whole entry, looked up): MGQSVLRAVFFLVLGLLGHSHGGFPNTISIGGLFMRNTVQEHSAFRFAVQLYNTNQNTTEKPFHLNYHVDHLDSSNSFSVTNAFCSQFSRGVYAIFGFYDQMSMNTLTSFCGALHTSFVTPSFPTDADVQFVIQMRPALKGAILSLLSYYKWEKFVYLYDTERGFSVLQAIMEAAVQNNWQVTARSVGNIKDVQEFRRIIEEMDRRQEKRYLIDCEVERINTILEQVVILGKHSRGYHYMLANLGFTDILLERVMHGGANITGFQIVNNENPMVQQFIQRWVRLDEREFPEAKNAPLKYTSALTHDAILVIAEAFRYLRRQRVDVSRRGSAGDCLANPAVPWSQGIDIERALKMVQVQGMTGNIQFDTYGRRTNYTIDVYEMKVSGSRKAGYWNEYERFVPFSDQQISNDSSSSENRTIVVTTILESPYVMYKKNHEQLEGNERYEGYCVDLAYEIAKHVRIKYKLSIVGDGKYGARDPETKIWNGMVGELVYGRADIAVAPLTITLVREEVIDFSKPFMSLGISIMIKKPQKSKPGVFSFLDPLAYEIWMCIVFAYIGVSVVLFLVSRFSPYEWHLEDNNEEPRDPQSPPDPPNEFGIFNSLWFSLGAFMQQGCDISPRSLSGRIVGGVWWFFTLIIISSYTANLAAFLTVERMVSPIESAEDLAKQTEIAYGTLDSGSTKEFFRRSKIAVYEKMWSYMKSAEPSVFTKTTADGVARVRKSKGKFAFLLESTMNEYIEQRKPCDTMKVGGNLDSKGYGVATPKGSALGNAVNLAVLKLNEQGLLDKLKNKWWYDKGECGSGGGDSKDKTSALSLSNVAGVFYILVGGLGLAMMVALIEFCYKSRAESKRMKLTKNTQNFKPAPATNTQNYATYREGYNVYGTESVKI
UniProt P19491, sequence (whole entry, looked up): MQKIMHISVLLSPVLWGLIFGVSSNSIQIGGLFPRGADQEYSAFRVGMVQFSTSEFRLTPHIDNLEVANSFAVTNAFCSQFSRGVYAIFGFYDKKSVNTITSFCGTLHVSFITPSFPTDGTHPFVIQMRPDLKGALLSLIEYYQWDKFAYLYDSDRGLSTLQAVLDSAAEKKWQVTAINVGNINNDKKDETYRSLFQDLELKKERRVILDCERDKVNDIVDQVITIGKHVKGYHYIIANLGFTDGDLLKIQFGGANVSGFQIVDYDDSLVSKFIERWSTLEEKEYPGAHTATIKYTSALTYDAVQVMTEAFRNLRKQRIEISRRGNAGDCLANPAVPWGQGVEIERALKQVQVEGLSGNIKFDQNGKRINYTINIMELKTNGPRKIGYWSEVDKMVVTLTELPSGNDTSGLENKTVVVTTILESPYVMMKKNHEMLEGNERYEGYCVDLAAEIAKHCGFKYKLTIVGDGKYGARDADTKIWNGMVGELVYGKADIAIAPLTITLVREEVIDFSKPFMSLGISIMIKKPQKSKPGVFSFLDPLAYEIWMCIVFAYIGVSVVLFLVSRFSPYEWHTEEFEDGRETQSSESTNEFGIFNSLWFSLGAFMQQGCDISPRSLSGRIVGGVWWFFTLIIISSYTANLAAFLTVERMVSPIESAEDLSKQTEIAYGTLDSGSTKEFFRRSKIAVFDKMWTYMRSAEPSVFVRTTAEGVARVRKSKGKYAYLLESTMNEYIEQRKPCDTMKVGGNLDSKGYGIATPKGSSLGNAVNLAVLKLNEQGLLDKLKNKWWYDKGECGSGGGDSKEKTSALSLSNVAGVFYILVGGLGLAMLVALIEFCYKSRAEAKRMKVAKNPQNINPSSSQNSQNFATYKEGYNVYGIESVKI
UniProt Q13882, sequence (whole entry, looked up): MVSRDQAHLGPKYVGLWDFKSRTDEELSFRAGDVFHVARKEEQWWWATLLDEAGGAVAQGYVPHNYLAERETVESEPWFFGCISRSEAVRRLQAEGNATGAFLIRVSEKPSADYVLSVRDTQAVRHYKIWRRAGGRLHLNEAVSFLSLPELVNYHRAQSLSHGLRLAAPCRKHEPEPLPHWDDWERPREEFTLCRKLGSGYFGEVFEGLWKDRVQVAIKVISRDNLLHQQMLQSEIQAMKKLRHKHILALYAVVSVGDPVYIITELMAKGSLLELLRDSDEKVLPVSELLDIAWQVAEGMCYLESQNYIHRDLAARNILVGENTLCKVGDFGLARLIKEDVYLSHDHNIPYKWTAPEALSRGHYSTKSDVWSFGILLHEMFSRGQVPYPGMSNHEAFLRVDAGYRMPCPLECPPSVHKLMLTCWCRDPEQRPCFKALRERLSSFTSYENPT
UniProt Q8NFU5, sequence (whole entry, looked up): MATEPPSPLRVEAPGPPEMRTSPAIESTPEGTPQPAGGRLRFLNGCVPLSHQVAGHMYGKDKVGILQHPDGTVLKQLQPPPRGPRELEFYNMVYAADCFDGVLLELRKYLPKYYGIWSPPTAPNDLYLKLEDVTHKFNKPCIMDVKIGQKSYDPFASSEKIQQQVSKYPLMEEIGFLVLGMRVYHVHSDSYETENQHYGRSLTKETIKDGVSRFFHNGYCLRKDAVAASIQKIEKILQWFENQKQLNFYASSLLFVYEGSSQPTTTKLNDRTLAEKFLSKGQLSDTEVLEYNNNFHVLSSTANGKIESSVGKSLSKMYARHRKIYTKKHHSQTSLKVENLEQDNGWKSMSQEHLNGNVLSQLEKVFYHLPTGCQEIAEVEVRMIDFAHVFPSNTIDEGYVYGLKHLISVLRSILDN
UniProt P14902, sequence (whole entry, looked up): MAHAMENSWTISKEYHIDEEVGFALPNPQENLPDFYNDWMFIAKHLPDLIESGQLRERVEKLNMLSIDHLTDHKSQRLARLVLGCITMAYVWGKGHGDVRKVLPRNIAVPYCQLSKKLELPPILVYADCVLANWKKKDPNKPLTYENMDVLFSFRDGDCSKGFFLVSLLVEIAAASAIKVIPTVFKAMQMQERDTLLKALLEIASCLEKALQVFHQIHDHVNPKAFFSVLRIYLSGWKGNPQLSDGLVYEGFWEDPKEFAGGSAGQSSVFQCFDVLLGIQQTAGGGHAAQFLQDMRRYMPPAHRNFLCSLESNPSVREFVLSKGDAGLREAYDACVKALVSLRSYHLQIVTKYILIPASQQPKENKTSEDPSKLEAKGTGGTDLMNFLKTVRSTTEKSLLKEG
UniProt Q8WUI4, sequence (whole entry, looked up): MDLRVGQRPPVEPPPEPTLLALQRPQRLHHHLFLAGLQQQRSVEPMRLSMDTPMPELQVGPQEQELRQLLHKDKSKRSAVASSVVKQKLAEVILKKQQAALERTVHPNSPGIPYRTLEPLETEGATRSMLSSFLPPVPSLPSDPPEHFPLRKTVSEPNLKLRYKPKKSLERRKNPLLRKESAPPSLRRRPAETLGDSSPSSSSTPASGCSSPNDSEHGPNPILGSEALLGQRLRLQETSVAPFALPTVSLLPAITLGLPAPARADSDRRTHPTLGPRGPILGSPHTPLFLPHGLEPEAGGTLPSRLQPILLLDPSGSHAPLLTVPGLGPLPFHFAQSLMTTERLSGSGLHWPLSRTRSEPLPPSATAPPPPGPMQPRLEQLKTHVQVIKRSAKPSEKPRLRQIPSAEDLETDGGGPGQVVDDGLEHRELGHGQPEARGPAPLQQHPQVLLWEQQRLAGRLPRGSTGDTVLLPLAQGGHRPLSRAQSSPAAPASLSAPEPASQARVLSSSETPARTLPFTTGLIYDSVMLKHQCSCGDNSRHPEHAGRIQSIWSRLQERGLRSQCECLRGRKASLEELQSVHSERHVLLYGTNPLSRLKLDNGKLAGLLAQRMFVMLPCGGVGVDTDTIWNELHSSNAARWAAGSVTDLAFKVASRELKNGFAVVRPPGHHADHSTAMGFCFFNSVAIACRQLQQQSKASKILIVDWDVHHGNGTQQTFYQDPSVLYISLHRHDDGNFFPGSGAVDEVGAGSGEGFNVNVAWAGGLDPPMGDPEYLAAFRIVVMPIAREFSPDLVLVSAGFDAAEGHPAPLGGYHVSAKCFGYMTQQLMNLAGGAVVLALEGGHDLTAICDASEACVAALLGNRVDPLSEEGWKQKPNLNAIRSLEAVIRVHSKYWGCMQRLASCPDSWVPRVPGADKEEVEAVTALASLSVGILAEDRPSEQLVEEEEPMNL
UniProt P10809, sequence (whole entry, looked up): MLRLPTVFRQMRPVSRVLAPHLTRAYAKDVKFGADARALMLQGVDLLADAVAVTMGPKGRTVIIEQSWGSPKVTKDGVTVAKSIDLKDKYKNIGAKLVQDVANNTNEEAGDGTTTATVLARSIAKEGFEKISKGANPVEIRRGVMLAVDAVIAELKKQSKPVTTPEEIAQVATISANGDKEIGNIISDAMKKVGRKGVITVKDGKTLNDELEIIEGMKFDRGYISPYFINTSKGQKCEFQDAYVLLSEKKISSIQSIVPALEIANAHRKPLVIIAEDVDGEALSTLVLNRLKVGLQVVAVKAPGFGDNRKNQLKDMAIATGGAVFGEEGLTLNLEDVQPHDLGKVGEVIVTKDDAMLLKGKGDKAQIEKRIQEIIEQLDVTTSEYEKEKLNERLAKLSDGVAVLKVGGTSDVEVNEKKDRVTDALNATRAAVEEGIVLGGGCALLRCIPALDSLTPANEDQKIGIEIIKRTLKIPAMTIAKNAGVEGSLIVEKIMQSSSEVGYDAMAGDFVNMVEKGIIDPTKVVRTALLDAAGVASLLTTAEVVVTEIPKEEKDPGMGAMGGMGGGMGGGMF
UniProt Q8WTS6, sequence (whole entry, looked up): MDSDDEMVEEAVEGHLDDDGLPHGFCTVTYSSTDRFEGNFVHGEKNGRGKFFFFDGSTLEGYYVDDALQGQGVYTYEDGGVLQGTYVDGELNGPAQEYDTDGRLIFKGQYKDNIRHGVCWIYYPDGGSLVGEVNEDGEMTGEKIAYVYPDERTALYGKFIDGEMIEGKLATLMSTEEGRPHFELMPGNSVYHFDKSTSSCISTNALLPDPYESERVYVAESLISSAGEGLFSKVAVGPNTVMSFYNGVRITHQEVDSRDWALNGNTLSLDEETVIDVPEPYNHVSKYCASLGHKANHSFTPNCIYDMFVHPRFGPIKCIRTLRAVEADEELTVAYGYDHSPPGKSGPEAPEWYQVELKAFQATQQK

C=C(NC(=O)c1csc(-c2nc3c(cc2O)-c2nc(cs2)C(=O)NC(C(C)O)C(=O)NC(=C(C)OC)c2nc(cs2)C(=O)NC2c4nc(cs4)C(=O)NC(COC(=O)c4c5c6c(cccc6n4O)COC(=O)C(OC4CC(C)(O)C(N(C)C)C(C)O4)C2OC5)c2nc-3cs2)n1)C(N)=O (stereo not drawn): “volume of distribution” 1.16 L/kg (cynomolgus monkey, male, plasma; intravenous infusion, 1 mg/kg single dose).
With Cc1ccc(CN2C3(NC(c4ccc(C)cc4)C24C(=O)Nc2ccccc24)C(=O)Nc2ccccc23)cc1 (stereo not drawn) the IC50 was 0.817 µM (PIK3CA (Homo sapiens, UniProt P42336); enzyme activity, inhibitor, ADP detection).
Cc1ncsc1-c1ccc(C(C)NC(=O)C2CC(O)CN2C(=O)C(NC(=O)CCCCCCCCCCN2CCCC(Nc3ncc(Cl)c(Nc4ccccc4S(=O)(=O)C(C)C)n3)C2)C(C)(C)C)cc1 (stereo not drawn): “log2 fold change” -1.6 (22Rv1; RNA-seq, refers to: ZNF518B mRNA; concentration not given; baseline: DMSO).
With C#CCCn1nc(C)c2c(Cl)c(C(=O)NCC3CC(C)=NO3)cnc21 (stereo not drawn) the IC50 was > 250 µM (60 kDa heat shock protein, mitochondrial, with HSP10 (Homo sapiens, UniProt P10809); ATPase activity; 30 min, added: HSP10).
For COC1CN([C@H]2CC[C@H]([C@@]3(C)Oc4c(Cl)cc(C(=O)NCc5c(SC)cc(C)[nH]c5=O)c(C)c4O3)CC2)C1, “log2 fold change” read 5.24 (RNA-seq, refers to: SULT1A2 mouse homolog; mouse, HT-1376 xenograft, whole blood; dose not given; baseline: vehicle).
With C=CCc1ccc(O)c(-c2ccc(O)c(CC=C)c2)c1 the IC50 was 6.29 µM (CES1 (Homo sapiens, UniProt P23141); enzyme activity, inhibitor).
C[n+]1cc(/C=N/NC(=O)c2cccc(C(=O)N/N=C/c3cc4ccccc4[n+](C)c3)c2)cc2ccccc21 has a ΔTm of 5.2 ± 0.1 °C (MYC parallel G4 DNA; FRET melting; 1 µM, DNA 0.2 µM, added: duplex DNA competitor 10 µM).
The IC50 of COc1cncc(-c2ccc3[nH]c4ncnc(N[C@H]5CC[C@H](N6CCOCC6)CC5)c4c3c2)c1 is reported as 0.008 µM (PIM1 (Homo sapiens, UniProt P11309); enzyme activity, inhibitor, radiometric).
COC(=O)Cc1cc2c(cc1C(=O)c1ccc(Cl)cc1Cl)OCO2 gave an IC50 of 4.9 µM (Gria2/Glutamate receptor 3; ion current, patch clamp).
The IC50 of Cc1nn(-c2cccc(N)c2)c(=O)c2cnc(Nc3ccc(N4CCNCC4)cc3)nc12 is reported as > 10 µM (PTK6 (Homo sapiens, UniProt Q13882); enzyme activity, inhibitor).
The remaining binding of Nc1ncc(-c2cc(-c3cnn(CC(F)(F)F)c3)ncc2F)nc1C(=O)NC1CNCC(F)C1 (stereo not drawn) is reported as 63% (TNIK; KINOMEscan; 1 µM; baseline: DMSO control).
CCN(CC)CC(=O)Nc1cccc(-n2cc(-c3ccc4ccc(-c5cn(-c6cccc(NC(=O)CN(CC)CC)c6)nn5)cc4c3)nn2)c1 has an IC50 of > 10 µM (PDGFRA (Homo sapiens, UniProt P16234, V561D); enzyme activity, inhibitor).
The IC50 of O=C(CCc1ccc(CNC(C(=O)O)C2CCCCC2)cn1)NO (stereo not drawn) is reported as > 10 µM (HDAC7 (Homo sapiens, UniProt Q8WUI4); enzyme activity, inhibitor).
For Cc1ccc(N=C2CC(=O)c3sc(C)nc3C2=O)cc1, the IC50 was > 100 µM (SETD7 (Homo sapiens, UniProt Q8WTS6); enzyme activity, inhibitor).
Cc1ccc(-c2c3c([nH]c(=O)c2C#N)C(C(C)C)CNC3)cc1 (stereo not drawn) has an IC50 of 0.99 µM (PDE9A (Homo sapiens, UniProt O76083); enzyme activity, inhibitor, radiometric).
N[C@@H](CCC(=O)O)C(=O)N[C@@H](CCC(=O)O)C(=O)O gave an IC50 of 384 µM (DDB1/DCAF12 (Homo sapiens, UniProt Q16531+Q5T6F0); binding, TR-FRET competition).
For COc1cccc(CNc2nc(NC3CCN(Cc4ccccc4C(=O)O)CC3)c3nc[nH]c3n2)c1, the IC50 was 53 µM (IPMK (Homo sapiens, UniProt Q8NFU5); enzyme activity, inhibitor).
Under “percent of control”, C=CC(=O)Nc1cccc(Cn2ncc3cnc(Nc4cnn(CCOC)c4)nc32)c1 is recorded as 100% (TLK2 human; binding, KINOMEscan; 100 nM; lower = stronger binding).
With CNS(=O)(=O)Nc1nccc(Cc2c(C)c3ccc(Oc4ncccc4F)cc3oc2=O)c1F the IC50 was 0.0015 µM (SW1463; cell viability; 7 days).
With O=C(Cc1ccc(OCc2ccccc2)cc1)NC1(C(=O)O)CCN(C(=O)c2ccc(-c3cccc(Cl)c3)cc2)CC1 the IC50 was > 10 µM (Putative P2Y purinoceptor 10 (Homo sapiens, UniProt O00398); TGF-alpha shedding, antagonist).
With N[C@@H](CCC(=O)N[C@@H](CS[Se]Cc1ccc(-c2cccc(C(O)c3ccc(Cl)c(Cl)c3)c2)cc1)C(=O)NCC(=O)O)C(=O)O (stereo partly drawn) the IC50 was 0.152 µM (PTPN5 (Homo sapiens, UniProt P54829); phosphatase activity, inhibitor; added: pNPP, no glutathione).
The IC50 of Cc1oc(C)c(-c2ccc(N(CC(C)C)C3CCCCC3)c(NC(=O)Nc3cccc(B4OC(C)(C)C(C)(C)O4)c3)c2)c1C(=O)O is reported as 94 ± 14 µM (IDO1 (Homo sapiens, UniProt P14902); enzyme activity, inhibitor, recombinant enzyme, refers to: kynurenine; 20 min, 2% DMSO, added: L-tryptophan).
With CCCC[C@H](NC(=O)COCCOCCNC(=O)CN1CCN(CC(=O)O)CCN(CC(=O)O)CC1)C(=O)N[C@H]1CC(=O)NCCCC[C@@H](C(N)=O)NC(=O)[C@H](Cc2c[nH]c3ccccc23)NC(=O)[C@H](CCCNC(=N)N)NC(=O)[C@@H](Cc2ccccc2)NC(=O)[C@H](Cc2c[nH]cn2)NC1=O [technetium-99m labelled] the tissue uptake was 3.71 ± 1.43 %ID/g (C57 mouse, lung; intravenous, 0.037 MBq, 0.5 h).
COC(=O)Cc1cc2c(cc1C(=O)c1ccccc1Br)OCO2 has an IC50 of 5.5 µM (Gria2/Glutamate receptor 3; ion current, patch clamp).

Some of these lines once more:
COC(=O)Cc1cc2c(cc1C(=O)c1ccccc1Br)OCO2 has an IC50 of 5.5 µM (Gria2/Glutamate receptor 3; ion current, patch clamp).
With C=CCc1ccc(O)c(-c2ccc(O)c(CC=C)c2)c1 the IC50 was 6.29 µM (CES1 (Homo sapiens, UniProt P23141); enzyme activity, inhibitor).
The IC50 of Cc1oc(C)c(-c2ccc(N(CC(C)C)C3CCCCC3)c(NC(=O)Nc3cccc(B4OC(C)(C)C(C)(C)O4)c3)c2)c1C(=O)O is reported as 94 ± 14 µM (IDO1 (Homo sapiens, UniProt P14902); enzyme activity, inhibitor, recombinant enzyme, refers to: kynurenine; 20 min, 2% DMSO, added: L-tryptophan).
Cc1ccc(-c2c3c([nH]c(=O)c2C#N)C(C(C)C)CNC3)cc1 (stereo not drawn) has an IC50 of 0.99 µM (PDE9A (Homo sapiens, UniProt O76083); enzyme activity, inhibitor, radiometric).
